Assay results collected from several papers.
A part holds a random share of what one study measured.

Sample 1 — technique: universal PBM; form: double-stranded DNA, one strand shown; medium: in vitro; tested at: not given; reading: higher = stronger binding; endpoint: E-score
Target: Sal-like protein 4, full length isoform B (SALL4, Homo sapiens, UniProt Q9UJQ4-2, residues 1-616)
Notes: 8-mer, flanks averaged, mean of replicates
ATCTTGAC: -0.0538
GATCCGCC: -0.162
CGGTTGCA: -0.205
CCGATGAC: -0.0561
GCTTAGAA: -0.0592

Sample 2 — technique: protein binding microarray; form: double-stranded DNA, one strand shown; medium: in vitro; tested at: not given; reference: not given; reading: higher = stronger binding; endpoint: E-score
Target: Histone acetyltransferase KAT6A, winged helix 1, GST fusion (KAT6A, Homo sapiens, UniProt Q92794, residues 1-85)
Notes: 8-mer, flanks averaged, mean of 2 arrays, mostly near background
Construct (chain): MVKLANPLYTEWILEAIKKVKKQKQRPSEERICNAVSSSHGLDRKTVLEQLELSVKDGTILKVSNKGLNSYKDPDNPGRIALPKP
CACACTAC: -0.0666
GCCTCCGC: 0.338
AATCCGTG: 0.22
GGATATTA: -0.0349
AATGGGAA: -0.352
AATCTATA: -0.0749

Sample 3 — technique: protein-binding microarray; form: double-stranded DNA, one strand shown; medium: in vitro; tested at: 0.8 µM; notes: whole 60-bp probe, no competitor; reading: higher = stronger binding; endpoint: fluorescence intensity
Target: Centromere-binding protein 1, full length, N-terminal tag (CBF1, Saccharomyces cerevisiae, UniProt P17106, residues 1-351)
UniProt P17106, sequence (whole entry, looked up): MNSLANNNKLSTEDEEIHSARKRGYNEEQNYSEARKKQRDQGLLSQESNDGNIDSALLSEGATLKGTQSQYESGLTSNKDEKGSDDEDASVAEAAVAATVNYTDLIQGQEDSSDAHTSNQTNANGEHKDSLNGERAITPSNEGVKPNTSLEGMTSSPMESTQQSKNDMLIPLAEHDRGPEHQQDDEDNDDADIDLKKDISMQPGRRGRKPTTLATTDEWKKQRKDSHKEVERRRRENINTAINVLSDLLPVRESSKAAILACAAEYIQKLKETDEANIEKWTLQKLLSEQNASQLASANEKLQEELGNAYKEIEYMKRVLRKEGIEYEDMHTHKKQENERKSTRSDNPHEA
CTAAGAATAATACGGCACGTTAAATGTTATTTTTTCGTCTTGATTCGCTTGACGCTGCTG: 563 a.u.
CTATGCATTATTCATCATGTGGTCCAAAGCTTTTTCGTCTTGATTCGCTTGACGCTGCTG: 1850 a.u.
GAAGGTAAAAAAAGTGATGTCAGACCAAAGTGCTAGGTCTTGATTCGCTTGACGCTGCTG: 533 a.u.

Other studies, line by line
PhoQ, residues 284 288 289 292 302 303 TLMATV
fold induction (PhoP, residues 12 14 15 18 19 NHFIF (Escherichia coli, UniProt P23836); Sort-seq, measured: YFP reporter; E. coli; PhoQ-PhoP variant library, with: 10 µM Mg2+; reference: high Mg2+ state, higher = stronger signaling): 1.71

Some of these lines once more (sample 2):
AATGGGAA: -0.352
